Assay results of several laboratories.
± marks the error that the study gave.

`CC(C)C[C@H](NC(=O)[C@H](CC(C)C)NC(=O)[C@@H](Cc1c[nH]c2ccccc12)NC(=O)[C@@H](NC(=O)[C@@H](Cc1csc2ccccc12)NC(=O)[C@@H](N)CCCCN)[C@@H](c1ccccc1)c1c[nH]c2ccccc12)C(N)=O` gave an HPLC retention of 51 %B (RP-HPLC Kinetex Biphenyl; acetonitrile/water TFA gradient).
For `COc1ccc(/C=C/C2=[N+]3C(=C(CO)c4c(C)cc(/C=C/c5ccc(OC)cc5)n4[B-]3(F)F)C(C)=C2C=O)cc1`, “luminescence quantum yield” read 16 ± 3% (acetonitrile; room temperature).
For `Cc1ncc2c(n1)CN(C(=O)Nc1nc(-c3cccs3)ccc1N)C2`, the AUC was 25 µg·h/mL (male beagle dog, plasma; oral, 120 mg/kg, multiple doses, once daily).
Under “AUC(0-24 h) ratio”, `CC/C=C\C/C=C\C/C=C\C/C=C\C/C=C\CCCCOC(CC)C(=O)O` (stereo not drawn) is recorded as ~2 fold (Wistar rat, male, portal vein blood, mesenteric lymph; oral, 100 mg/kg; baseline: portal vein over mesenteric lymph).
`CCC(CC)CNC(=N)NC(=N)NCCCCCCNC(=N)NC(=N)NCC(CC)CC` has a scaled CLint of 5.66 L/h/kg (metabolic stability; mouse, liver microsomes; 2 µM).
The AUC(0-t) of `NC(=O)c1ccc(C(=O)NOCc2ccc(Sc3cccc(Cl)c3)c(C(F)(F)F)c2)cc1` is reported as 14.6 µg·h/mL (male ICR mouse, plasma; intravenous, 10 mg/kg).
`Cc1cccc(-c2cccc(C)n2)n1.Cc1cccc(-c2cccc(C)n2)n1.[Cl-].[Cl-].[Ru+2].c1ccc(-c2ccnc3c2ccc2c(-c4ccccc4)ccnc23)cc1` has a photoactivation half-life of 35.7 ± 1.5 s (UV/Vis; PBS; concentration not given).
With `Cc1ccccc1-c1cc(N2CCNCC2)ncc1N(C)C(=O)C(C)(C)c1cc(C(F)(F)F)cc(C(F)(F)F)c1` the fu was < 0.03 (human plasma; unbound fraction).
`C1=C(c2cc3c(Nc4ccc5scnc5c4)ncnc3s2)CCSC1` has a concentration of 0.00439 µg/mL (BALB/c mouse, plasma; oral, 10 mg/kg, 2 h).
For `Cc1ccc(OCC(=O)N(Cc2cccs2)c2ccn[nH]2)cc1`, the AUC(0-t) was 0.704 µg·h/mL (male beagle dog, plasma; oral, 100 mg/kg, single dose).
For `NS(=O)(=O)c1ccc(N2N=C(C(F)(F)F)CC2c2ccc(F)cc2F)cc1` (stereo not drawn), the plasma concentration was 0.059 ± 0.041 µg/mL (Beagle dog, male, arthritis model, plasma; oral, 4 mg/kg single dose, day 7).
`CCCC[C@@H]1NC(=O)[C@@H](NC(=O)[C@H](CCC(=O)O)NC(=O)CNC(=O)CN2CCN(CC(=O)O)CCN(CC(=O)O)CCN(CC(=O)O)CC2)CCCCNC(=O)C[C@@H](C(N)=O)NC(=O)[C@H](C(C)C)NC(=O)[C@@H]2CCCN2C(=O)[C@H](CCCNC(=N)N)NC(=O)CNC(=O)[C@H](Cc2c[nH]c3ccccc23)NC(=O)[C@H](CCCNC(=N)N)NC(=O)[C@@H](Cc2ccccc2)NC(=O)[C@H](Cc2c[nH]cn2)NC(=O)[C@H](CCC(=O)O)NC1=O` [gallium-67 labelled] gave an intestine uptake of 1.13 ± 0.11 %ID (C57 mice, B16/F10 lung metastases; intravenous, 0.037 MBq, 4 h).
`NC12CNCCNCC(NCc3ccc(CNC(=O)CCCC(=O)NCc4ccc(-c5nncnn5)cc4)cc3)(CNCCNC1)CNCCNC2.[64Cu+2]`: “mean absorbed dose” 0.0355 rad/mCi (OLINDA dosimetry; upper large intestine wall; pretargeting, 120-h interval).
For `CC(C)(Sc1cc[n+]([O-])cc1-c1ccc(C#N)c2ccccc12)C(=O)OC1OC(C(=O)O)C(O)C(O)C1O` (stereo not drawn), the terminal half-life was 23.2 h (plasma; oral, 15 mg, moderate renal impairment, fasted).
`O=C(NCCCN(CCCCN(CCCNC(=O)c1cccc(=O)n1[O-])C(=O)c1cccc(=O)n1[O-])C(=O)c1cccc(=O)n1[O-])c1cccc(=O)n1[O-].[89Zr+4]` has an intact complex of 98.6 ± 2% (radio-TLC; PBS; 5 d, pH 7.4, 37 °C, with: Mg^2+ 10-fold excess).
`N=C(N)NCCC[C@@H]1NC(=O)[C@H](Cc2c[nH]c3ccccc23)NC(=O)[C@@H](CC2CCCCC2)NC(=O)[C@@H]2CCCN2C(=O)[C@@H](NC(=O)CCc2ccccc2)CCCNC1=O` has an AUC of 2.09 µg·h/mL (C57BL/6J mouse, plasma; intraperitoneal, 1 mg/kg, single dose).
Under “time on rotating rod”, `Clc1cccc(-c2nnc(/N=C/C=C/c3ccccc3)nc2/N=C/C=C/c2ccccc2)c1Cl` is recorded as 104 ± 76.4 s (rotarod test; white albino mice, both sexes; intraperitoneal, 10 mg/kg).
With `O=C(Cc1ccc(-c2ccc(OCCN3CCOCC3)cc2)cn1)NCc1ccc(F)cc1` the half-life was 1.69 ± 1.09 h (ICR mouse; intravenous, 2 mg/kg).
`CC(C)[C@H](NC(=O)CNC(=O)[C@H](CCC(N)=O)NC(=O)[C@H](C)N)C(=O)O` gave an AUC(0-last) of 0.49 µg·h/mL (human, plasma; intravenous infusion, 30 mg/kg single, 15 min infusion, geometric mean).
`C=CC(=O)Nc1cc(Nc2nccc(-c3cn(C4CC4)c4ccccc34)n2)c(OC)cc1NC` has a plasma concentration of 70.5 ng/g (radiolabelled metabolite profiling; human male, plasma; oral, 110 mg, 48 h).
With `C=C(c1cc(F)c(C(=O)O)c(F)c1)c1cc2c(cc1C)C(C)(C)CCC2(C)C` the HDL level was 109 ± 11.8 mg/dL (Sprague-Dawley rat, male, plasma; oral, 100 mg/kg, 1 h, sesame oil vehicle).
For `O=[11C](OC(C(F)(F)F)C(F)(F)F)N1CCC(CNS(=O)(=O)c2ccc(Cl)cc2)CC1`, the unchanged tracer was 53% (Sprague-Dawley rat, brain homogenate; iv, dose not given, 30 min).
For `C1=CCCC=CCC1.F[P-](F)(F)(F)(F)F.[Pt+][c]1ccccc1P(=Nc1ccccc1)(c1ccccc1)c1ccccc1`, “absorption rate constant” read 2.12 h⁻¹ (rat; 20 µM).
Under “fluorescence quantum yield”, `COc1ccc(/C=C/c2ccc(-c3ccc(C)cn3)nc2)cc1` is recorded as 0.48 (DMSO; with: quinine bisulfate reference).
For `C[C@H](NC(=O)COC(=O)[C@H](C)NC(=O)CO)C(=O)O`, the depolymerization half-life was 12.6 h (water; pH 5, 37 °C).
For `Clc1ccc2c(c1)nc(NCC1CCCN1)n2Cc1ccccc1` (stereo not drawn), the compound remaining was 98.9% (metabolic stability; mouse, liver microsomes; 0.1 µM, 30 min, pH 7.4).
`O=c1nc(NO)ccn1[C@@H]1O[C@H](CO)[C@@H](O)[C@H]1O` has a mRNA level of 0.2 fold (RT-PCR, item: CYP2B1; normal rat, liver; oral, 80 mg/kg twice daily, 5 days; baseline: untreated rats).
The CLint of `Brc1ccc(Nc2nc(NN=Cc3c[nH]c4ccccc34)nc(N3CCOCC3)n2)cc1` is reported as 177 mL/min/g protein (mouse liver microsomes).
For `O=C(O)C1CN(Cc2ccc(-c3noc(-c4ccc(OCC[18F])c(C(F)(F)F)c4)n3)cc2)C1`, “liver uptake increase” read 61% (microPET SUV; C57BL/6 mouse, liver; 100 to 120 min; baseline: LPS-treated over sham).
`Cc1cc2c(cc1C1(c3ncc(C(=O)O)cn3)CC1)C(C)(C)CCC2(C)C` has an HDL level of 41 ± 3.6 mg/dL (Sprague-Dawley rat, male, plasma; oral, 100 mg/kg, 24 h, sesame oil vehicle).
`NC[C@@H](C(=O)Nc1ccc(-c2cn[nH]c2)cc1)c1ccccc1`: “ocular irritation score” 0 (OECD 405, item: Chemosis; New Zealand White rabbit; topical, 0.1 %, 72 h, day 4; direction not given).
For `CCCC[C@H](NC(=O)CNC(=O)CNC(=O)CN1CCN(CC(=O)O)CCN(CC(=O)O)CCN(CC(=O)O)CC1)C(=O)N[C@H]1CC(=O)NCCCC[C@@H](C(N)=O)NC(=O)[C@H](Cc2c[nH]c3ccccc23)NC(=O)[C@H](CCCNC(=N)N)NC(=O)[C@@H](Cc2ccccc2)NC(=O)[C@H](Cc2c[nH]cn2)NC1=O` [copper-64 labelled], the uptake ratio was 2.41 (female C57 mouse, B16/F1 melanoma; intravenous, 0.037 MBq, 0.5 h; baseline: tumour over blood).
With `CC(C)(O)c1ncc([S@](N)(=O)=NC(=O)Nc2c3c(cc4c2CCC4)CCC3)s1` the AUC(0-last)/dose was 1040 ng·h/mL/mg (healthy human, fasted; oral, 3 mg single dose, capsule formulation).
For `CC(C)c1cnc(-c2cc(Cl)ccc2F)cc1Nc1ccncc1C(=O)NC(CO)CO`, “patients with any TRAE” read 0% (human patients; oral, dose not given, worst grade 4).
The AUC of `Cc1cc2c(c(=O)o1)C=C1CCC(C(C)CNCc3ccc(O)cc3)CC1O2` (stereo not drawn) is reported as 11.3 µg·h/mL (mouse, plasma; oral, dose not given).
`OC1(C(F)(F)F)CCN(c2nc(Nc3ccnc(C(F)(F)F)c3)nc(-c3cccc(C(F)(F)F)n3)n2)C1` (stereo not drawn) — result for “thymus volume and weight”: “decreased” (monkey; at least 3 mg/kg, repeated-dose toxicity).
For `COc1ccc(-c2csc(N/N=C(\C)c3cc(O)cc(O)c3)n2)cc1`, the unbound fraction was 0.18% (equilibrium dialysis; human, male, plasma; 3 µM, 5 h, pH 7.4).
For `Cn1c(=O)oc2ccc(-c3ccc(CC(C#N)NC(=O)C4CNCCCO4)c(F)c3)cc21` (stereo not drawn), “fibrinogen decreased incidence” read 0% (human; oral, 20 mg once daily, TEAE, multiple ascending dose).
Under “fraction of AUC from gamma half-life”, `CC(C)C[C@@H](NC(=O)[C@H](NC(=O)[C@H]1CCCN1)[C@H](C)O)C(=O)N[C@H](Cc1c[nH]cn1)C(=O)N[C@@H](C(=O)N[C@H](Cc1c[nH]cn1)C(=O)N[C@H](CC(N)=O)C(=O)N[C@H](CCCNC(=N)N)C(=O)N[C@H](CCCNC(=N)N)C(=O)N[C@H](CCCNC(=N)N)C(=O)N[C@H](CCCNC(=N)N)C(=O)N[C@H](CCCNC(=N)N)C(N)=O)[C@H](C)O` is recorded as 22% (Beagle dog, plasma; oral, 20 mg/kg single dose).
`COCCOCCOCCOCCOCCOCCOCCOCCOCCOCCOCCOCCNC(=O)CCC1(Cc2ccccc2)c2ccccc2-c2ccc(-c3sc(-c4c5c(c(-c6sc(-c7ccc8c(c7)C(CCC(=O)NCCOCCOCCOCCOCCOCCOCCOCCOCCOCCOCCOCCOC)(Cc7ccccc7)c7ccccc7-8)c7c6OCCO7)c6nsnc46)N=S=N5)c4c3OCCO4)cc21` (stereo not drawn) has a blood half-life of 0.9 h (NIR-II fluorescence; KM mice, female, whole blood; intravenous, 15 mg/kg).
Under “share of drug-related material”, `CCc1cc(Nc2nc(-c3ccc(-n4cnc(C)c4)c(F)c3)cs2)c(C)cc1C(=O)O` is recorded as > 10% (rat, plasma; oral, dose not given).
`Oc1ccc2ccccc2c1/N=N/c1ccccc1` gave a measured concentration of 5.12 µg/L (rat whole blood; 5.0 µg/L, 30 days, -20 °C, long-term storage).
For `O=C([O-])c1cccc(CN(CCN(Cc2cn(Cc3ccccc3)nn2)Cc2cccc(C(=O)[O-])n2)Cc2cn(Cc3ccccc3)nn2)n1.[177Lu+3]`, “radiometal bound to chelator” read 46% (human serum; 24 h, 37 °C, with: 177Lu).
With `COc1cc(NC(C)=O)c2c(c1O)-c1c(OC)c(OC)cc3c1C(C2)N(C)CC3` (stereo not drawn) the remaining compound was 93.6 ± 3.1% (rat, processed plasma samples; 100 µg/mL, 24 h, room temperature, post-preparative storage).
For `CCC/C(=C\C1=C(OC)C(=O)c2ccccc2C1=O)C(=O)NOC`, the CLint was 1.08 L/h/kg (mouse liver S9; 1 µM, phase II UGT conditions).

For quick reference, copied from above:
`CCC(CC)CNC(=N)NC(=N)NCCCCCCNC(=N)NC(=N)NCC(CC)CC` has a scaled CLint of 5.66 L/h/kg (metabolic stability; mouse, liver microsomes; 2 µM).
The AUC(0-t) of `NC(=O)c1ccc(C(=O)NOCc2ccc(Sc3cccc(Cl)c3)c(C(F)(F)F)c2)cc1` is reported as 14.6 µg·h/mL (male ICR mouse, plasma; intravenous, 10 mg/kg).
`Cc1cccc(-c2cccc(C)n2)n1.Cc1cccc(-c2cccc(C)n2)n1.[Cl-].[Cl-].[Ru+2].c1ccc(-c2ccnc3c2ccc2c(-c4ccccc4)ccnc23)cc1` has a photoactivation half-life of 35.7 ± 1.5 s (UV/Vis; PBS; concentration not given).
With `Cc1ccccc1-c1cc(N2CCNCC2)ncc1N(C)C(=O)C(C)(C)c1cc(C(F)(F)F)cc(C(F)(F)F)c1` the fu was < 0.03 (human plasma; unbound fraction).
`C1=C(c2cc3c(Nc4ccc5scnc5c4)ncnc3s2)CCSC1` has a concentration of 0.00439 µg/mL (BALB/c mouse, plasma; oral, 10 mg/kg, 2 h).
For `Cc1ccc(OCC(=O)N(Cc2cccs2)c2ccn[nH]2)cc1`, the AUC(0-t) was 0.704 µg·h/mL (male beagle dog, plasma; oral, 100 mg/kg, single dose).
